Assay results pooled from the literature.
Every numbered part comes from another study and shows a few of its results, in no order. Changes are numbered by the printed parent chain.
UniProt P9WI81, sequence (whole entry, looked up): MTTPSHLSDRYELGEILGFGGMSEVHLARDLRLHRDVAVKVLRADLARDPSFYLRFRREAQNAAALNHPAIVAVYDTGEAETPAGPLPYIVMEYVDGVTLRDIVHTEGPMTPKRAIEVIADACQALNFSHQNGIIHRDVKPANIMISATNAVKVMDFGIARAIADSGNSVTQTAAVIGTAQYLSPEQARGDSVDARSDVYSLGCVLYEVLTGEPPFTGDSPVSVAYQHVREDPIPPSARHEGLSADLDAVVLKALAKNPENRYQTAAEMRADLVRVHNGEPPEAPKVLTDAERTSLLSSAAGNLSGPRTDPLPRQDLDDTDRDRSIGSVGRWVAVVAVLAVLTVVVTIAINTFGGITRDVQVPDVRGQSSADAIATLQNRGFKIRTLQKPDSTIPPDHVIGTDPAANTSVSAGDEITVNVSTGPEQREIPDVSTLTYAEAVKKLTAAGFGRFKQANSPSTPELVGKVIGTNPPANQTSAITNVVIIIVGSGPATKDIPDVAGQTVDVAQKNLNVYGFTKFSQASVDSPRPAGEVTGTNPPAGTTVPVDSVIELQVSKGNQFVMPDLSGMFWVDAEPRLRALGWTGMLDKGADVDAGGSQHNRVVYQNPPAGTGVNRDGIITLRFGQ
UniProt Q9P286, sequence (whole entry, looked up): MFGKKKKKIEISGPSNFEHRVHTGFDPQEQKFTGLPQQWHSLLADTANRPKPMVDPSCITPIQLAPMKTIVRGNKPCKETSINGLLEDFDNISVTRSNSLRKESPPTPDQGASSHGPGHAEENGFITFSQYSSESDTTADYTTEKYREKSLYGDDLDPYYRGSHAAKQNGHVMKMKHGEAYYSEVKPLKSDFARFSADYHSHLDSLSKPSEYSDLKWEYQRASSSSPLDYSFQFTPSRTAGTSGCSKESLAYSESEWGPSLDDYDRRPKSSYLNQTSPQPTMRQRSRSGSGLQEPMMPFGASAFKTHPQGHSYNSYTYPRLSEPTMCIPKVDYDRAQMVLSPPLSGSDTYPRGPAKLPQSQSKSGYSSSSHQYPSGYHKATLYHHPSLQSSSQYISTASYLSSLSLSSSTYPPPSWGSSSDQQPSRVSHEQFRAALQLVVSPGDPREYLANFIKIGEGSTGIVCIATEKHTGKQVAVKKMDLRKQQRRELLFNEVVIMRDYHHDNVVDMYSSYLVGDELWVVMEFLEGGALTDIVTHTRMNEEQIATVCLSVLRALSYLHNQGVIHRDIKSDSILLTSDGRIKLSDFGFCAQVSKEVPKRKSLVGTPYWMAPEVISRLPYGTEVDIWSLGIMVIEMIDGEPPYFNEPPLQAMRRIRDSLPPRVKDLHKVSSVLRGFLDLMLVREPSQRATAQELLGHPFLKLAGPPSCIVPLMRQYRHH
UniProt P23975, sequence (whole entry, looked up): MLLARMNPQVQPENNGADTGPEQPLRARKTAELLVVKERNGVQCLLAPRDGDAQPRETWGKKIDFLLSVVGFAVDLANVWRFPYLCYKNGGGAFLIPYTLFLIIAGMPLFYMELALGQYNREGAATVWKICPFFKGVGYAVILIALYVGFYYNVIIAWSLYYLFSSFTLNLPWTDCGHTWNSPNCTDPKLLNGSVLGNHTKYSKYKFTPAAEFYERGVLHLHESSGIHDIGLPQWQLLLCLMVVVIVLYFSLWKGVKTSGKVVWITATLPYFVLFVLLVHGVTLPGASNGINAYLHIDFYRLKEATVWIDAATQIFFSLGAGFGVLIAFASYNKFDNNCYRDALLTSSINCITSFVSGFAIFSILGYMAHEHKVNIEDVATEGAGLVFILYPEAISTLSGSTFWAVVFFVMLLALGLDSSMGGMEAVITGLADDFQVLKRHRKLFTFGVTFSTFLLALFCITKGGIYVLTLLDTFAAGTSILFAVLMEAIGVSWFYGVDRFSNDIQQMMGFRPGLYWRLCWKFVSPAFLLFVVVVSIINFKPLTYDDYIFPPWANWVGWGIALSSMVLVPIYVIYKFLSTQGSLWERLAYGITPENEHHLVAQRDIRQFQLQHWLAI

Series 1 — target: CCNA1, cyclin fold, Cln2 fusion (human); method: yeast growth competition, sequencing; sample: yeast; notes: strong parent motif; reference: not given; reading: higher = stronger binding; endpoint: normalised enrichment score
Parent: viral docking peptide; YKVKRRLVFGADD; partner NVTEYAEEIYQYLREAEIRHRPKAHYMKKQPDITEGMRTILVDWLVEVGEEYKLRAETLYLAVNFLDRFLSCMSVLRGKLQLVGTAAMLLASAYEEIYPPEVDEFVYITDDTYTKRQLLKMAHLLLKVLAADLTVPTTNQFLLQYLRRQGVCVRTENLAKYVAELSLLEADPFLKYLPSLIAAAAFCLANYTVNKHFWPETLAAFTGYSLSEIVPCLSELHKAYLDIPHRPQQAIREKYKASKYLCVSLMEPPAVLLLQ
YKVKHRLVFGADD [R5H]: -0.0942
YFVKRRLVFGADD [K2F]: 0.859
YKVKRRLVQGADD [F9Q]: 0.334
YKVKRQLVFGADD [R6Q]: 1.12
YKVKRRLAFGADD [V8A]: 0.751
YTVKRRLVFGADD [K2T]: 1.39
YKEKRRLVFGADD [V3E]: -0.0222
YKVKRNLVFGADD [R6N]: 0.268

Series 2 — read-out: peptide-MHC binding; molecule type: peptide; concentration: concentration not given; endpoint: binding
Target: HLA class I histocompatibility antigen, C alpha chain, allele C*04:01 (Homo sapiens, UniProt P10321)
KAMRPWQSF: inactive
MVFGRFSFA: inactive
VEYHYTFYI: inactive
RPRLHSISF: inactive
YIISTHYQF: inactive
VGYYTFHPK: inactive
NTDNKFISY: inactive
YLREHIRAM: inactive

Other studies, line by line
C[C@H](c1cccc(C#N)c1)n1cc(Cl)cc(C(N)=O)c1=N  remaining binding (pknB (Mycobacterium tuberculosis, UniProt P9WI81); cell-free assay, competition with immobilised ligand; 1 µM): 89%
O=C1NC(=O)c2c1c1c3ccccc3n3c1c1c2c2ccccc2n1[C@H]1CC[C@@H]3O1  remaining activity (PAK5 (Homo sapiens, UniProt Q9P286); enzyme activity, inhibitor; 0.5 µM; reference: control): 64.7%
COc1cccc(NC(=O)c2nc3scc(CN(C)Cc4ccccc4)c3c(=O)[nH]2)c1  inhibition (SLC6A2 (Homo sapiens, UniProt P23975); ligand displacement; 10 µM): 19.6%
